{"data": "Assay results gathered from unrelated publications", "CDK19": "Cyclin-dependent kinase 19 (CDK19, Homo sapiens, UniProt Q9BWU1)", "note": "Compare with care: the assays were run in different laboratories.", "sequence of UniProt Q9BWU1 (whole entry, looked up)": "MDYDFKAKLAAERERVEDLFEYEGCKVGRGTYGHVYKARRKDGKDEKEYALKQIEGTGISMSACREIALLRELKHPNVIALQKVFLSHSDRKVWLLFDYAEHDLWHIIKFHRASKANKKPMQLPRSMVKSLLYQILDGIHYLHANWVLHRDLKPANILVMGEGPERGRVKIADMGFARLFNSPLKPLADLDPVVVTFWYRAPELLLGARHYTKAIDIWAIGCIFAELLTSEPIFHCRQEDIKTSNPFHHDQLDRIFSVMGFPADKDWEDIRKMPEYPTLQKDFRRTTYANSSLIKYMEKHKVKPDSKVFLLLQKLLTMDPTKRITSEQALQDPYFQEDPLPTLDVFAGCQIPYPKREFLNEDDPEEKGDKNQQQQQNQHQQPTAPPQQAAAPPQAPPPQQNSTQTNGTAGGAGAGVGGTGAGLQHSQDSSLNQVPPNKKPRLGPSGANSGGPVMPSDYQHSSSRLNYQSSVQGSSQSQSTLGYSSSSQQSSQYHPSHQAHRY", "sequence of UniProt Q6DT37 (whole entry, looked up)": "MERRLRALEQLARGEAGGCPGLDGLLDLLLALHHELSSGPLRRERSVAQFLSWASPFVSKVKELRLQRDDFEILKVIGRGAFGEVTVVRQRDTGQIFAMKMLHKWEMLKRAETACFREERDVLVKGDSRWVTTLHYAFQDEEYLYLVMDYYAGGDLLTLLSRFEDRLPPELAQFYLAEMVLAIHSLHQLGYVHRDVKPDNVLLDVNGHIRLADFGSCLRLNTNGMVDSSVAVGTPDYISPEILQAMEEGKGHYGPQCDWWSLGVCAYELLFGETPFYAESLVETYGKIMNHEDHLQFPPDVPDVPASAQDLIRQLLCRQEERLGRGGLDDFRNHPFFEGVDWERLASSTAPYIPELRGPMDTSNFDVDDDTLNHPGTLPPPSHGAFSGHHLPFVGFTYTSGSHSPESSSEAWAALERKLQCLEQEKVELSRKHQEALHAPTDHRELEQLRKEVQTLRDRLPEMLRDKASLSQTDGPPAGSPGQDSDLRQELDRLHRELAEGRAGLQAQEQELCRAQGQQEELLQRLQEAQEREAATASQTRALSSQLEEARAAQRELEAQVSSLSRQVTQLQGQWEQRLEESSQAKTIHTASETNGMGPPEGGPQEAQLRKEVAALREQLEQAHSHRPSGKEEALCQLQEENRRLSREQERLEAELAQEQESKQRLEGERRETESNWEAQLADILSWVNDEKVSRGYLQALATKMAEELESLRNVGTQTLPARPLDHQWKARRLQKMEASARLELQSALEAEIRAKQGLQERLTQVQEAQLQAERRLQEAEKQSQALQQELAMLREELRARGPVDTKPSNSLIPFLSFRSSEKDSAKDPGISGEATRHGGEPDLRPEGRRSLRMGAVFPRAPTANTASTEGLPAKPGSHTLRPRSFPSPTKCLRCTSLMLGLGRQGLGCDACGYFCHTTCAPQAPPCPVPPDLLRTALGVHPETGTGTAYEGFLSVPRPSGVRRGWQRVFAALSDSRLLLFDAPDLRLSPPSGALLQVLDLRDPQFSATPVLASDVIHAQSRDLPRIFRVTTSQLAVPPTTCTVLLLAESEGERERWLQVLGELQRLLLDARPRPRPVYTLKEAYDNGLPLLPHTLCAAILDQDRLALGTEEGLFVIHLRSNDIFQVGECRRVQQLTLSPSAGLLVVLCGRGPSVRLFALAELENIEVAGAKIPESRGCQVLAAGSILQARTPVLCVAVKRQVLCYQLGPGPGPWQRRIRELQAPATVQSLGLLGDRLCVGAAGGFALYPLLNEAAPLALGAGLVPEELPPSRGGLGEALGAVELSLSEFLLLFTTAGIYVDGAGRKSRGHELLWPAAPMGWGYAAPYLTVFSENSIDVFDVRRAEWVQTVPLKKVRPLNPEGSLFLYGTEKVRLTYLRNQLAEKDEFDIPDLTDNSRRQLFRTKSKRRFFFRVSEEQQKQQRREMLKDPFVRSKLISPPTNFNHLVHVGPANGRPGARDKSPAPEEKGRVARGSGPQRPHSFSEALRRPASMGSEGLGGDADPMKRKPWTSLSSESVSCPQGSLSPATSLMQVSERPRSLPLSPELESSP", "sequence of UniProt Q9UPZ9 (whole entry, looked up)": "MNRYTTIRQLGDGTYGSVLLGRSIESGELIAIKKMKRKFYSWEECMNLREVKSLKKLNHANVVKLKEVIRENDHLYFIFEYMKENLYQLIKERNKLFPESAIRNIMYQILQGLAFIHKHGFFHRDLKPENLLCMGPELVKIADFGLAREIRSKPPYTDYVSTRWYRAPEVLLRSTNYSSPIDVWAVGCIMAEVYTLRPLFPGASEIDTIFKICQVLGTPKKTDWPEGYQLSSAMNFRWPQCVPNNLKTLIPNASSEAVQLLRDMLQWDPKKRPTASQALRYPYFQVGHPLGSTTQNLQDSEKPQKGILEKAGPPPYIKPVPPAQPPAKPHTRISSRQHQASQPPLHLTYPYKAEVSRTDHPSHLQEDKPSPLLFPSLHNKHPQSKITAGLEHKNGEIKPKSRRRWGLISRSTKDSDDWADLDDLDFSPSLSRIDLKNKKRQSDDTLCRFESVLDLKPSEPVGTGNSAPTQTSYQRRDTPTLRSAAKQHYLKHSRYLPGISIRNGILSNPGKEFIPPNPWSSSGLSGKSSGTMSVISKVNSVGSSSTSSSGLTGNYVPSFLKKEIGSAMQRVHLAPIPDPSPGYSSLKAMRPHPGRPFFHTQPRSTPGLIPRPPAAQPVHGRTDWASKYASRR", "sequence of UniProt Q9BUB5 (whole entry, looked up)": "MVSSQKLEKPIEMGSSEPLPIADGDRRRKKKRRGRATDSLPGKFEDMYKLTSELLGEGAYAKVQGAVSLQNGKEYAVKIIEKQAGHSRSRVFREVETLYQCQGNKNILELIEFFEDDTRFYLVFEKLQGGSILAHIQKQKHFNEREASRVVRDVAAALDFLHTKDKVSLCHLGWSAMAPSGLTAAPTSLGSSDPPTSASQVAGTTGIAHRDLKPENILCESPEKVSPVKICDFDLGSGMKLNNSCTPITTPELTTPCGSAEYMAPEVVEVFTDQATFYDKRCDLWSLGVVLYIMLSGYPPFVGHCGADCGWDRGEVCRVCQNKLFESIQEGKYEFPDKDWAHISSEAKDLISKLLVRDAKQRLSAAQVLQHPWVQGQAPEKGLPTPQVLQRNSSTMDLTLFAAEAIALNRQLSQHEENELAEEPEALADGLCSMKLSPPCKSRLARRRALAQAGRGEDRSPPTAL", "sequence of UniProt P48736 (whole entry, looked up)": "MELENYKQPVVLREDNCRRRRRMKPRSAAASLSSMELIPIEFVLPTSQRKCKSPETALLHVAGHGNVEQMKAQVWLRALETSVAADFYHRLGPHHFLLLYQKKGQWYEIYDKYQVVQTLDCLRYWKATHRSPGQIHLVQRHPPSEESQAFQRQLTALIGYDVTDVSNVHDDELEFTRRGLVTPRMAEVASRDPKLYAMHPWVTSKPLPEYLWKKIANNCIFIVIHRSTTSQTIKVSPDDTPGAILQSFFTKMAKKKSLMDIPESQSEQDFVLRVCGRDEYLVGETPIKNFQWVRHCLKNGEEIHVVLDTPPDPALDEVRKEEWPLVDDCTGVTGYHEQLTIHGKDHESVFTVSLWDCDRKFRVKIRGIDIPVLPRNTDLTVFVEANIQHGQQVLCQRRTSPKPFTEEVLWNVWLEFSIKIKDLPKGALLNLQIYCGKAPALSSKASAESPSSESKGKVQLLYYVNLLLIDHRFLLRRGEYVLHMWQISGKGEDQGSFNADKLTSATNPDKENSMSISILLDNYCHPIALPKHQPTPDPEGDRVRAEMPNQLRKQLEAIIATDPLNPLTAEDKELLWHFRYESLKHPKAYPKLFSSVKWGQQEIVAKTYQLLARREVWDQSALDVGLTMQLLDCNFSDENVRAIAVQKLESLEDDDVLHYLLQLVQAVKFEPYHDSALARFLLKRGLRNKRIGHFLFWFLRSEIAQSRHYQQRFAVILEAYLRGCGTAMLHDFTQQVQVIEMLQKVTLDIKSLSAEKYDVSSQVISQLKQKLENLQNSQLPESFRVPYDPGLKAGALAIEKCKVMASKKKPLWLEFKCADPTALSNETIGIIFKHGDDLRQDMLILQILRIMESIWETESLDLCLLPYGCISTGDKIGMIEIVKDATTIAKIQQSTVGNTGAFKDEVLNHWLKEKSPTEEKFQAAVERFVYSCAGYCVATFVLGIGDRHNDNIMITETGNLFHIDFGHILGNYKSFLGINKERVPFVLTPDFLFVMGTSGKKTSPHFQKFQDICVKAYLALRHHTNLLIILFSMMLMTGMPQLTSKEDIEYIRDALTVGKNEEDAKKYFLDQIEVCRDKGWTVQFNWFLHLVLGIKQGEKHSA", "sequence of UniProt P57059 (whole entry, looked up)": "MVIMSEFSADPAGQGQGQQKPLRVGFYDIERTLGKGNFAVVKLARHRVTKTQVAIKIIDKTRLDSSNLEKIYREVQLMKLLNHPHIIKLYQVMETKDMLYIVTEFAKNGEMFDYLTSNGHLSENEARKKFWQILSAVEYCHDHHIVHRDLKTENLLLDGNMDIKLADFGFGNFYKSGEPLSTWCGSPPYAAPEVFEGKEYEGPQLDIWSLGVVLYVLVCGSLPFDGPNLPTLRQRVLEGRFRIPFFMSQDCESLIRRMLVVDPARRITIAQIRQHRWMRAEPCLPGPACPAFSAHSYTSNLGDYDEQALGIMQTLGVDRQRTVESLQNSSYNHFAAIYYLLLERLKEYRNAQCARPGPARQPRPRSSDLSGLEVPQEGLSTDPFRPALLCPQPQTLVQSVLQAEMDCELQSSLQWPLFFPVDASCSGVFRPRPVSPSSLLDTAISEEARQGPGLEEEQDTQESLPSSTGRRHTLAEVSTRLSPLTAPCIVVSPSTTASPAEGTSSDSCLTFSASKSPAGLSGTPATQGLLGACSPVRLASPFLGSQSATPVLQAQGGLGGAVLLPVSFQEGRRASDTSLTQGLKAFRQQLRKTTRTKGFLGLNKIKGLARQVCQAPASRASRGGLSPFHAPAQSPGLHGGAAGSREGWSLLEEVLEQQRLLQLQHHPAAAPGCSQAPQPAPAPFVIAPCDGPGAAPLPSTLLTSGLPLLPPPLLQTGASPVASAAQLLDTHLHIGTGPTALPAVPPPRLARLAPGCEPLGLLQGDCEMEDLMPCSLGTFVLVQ"}
{"SMILES": "CN(C)c1ncc(F)c(-c2cnn3ncccc23)n1", "tested on": "CDK19", "assay": "binding", "conditions": "1 µM", "quantity": "remaining binding", "value": "100%"}
{"SMILES": "C[C@@H](c1ccc(-n2cnc3c(N)ncnc32)cc1)N1CCc2nn(C)c(Cc3ccccc3)c2C1=O", "tested on": "RIPK1 (Homo sapiens, UniProt Q13546)", "assay": "binding, competition with immobilised ligand", "conditions": "0.1 µM", "quantity": "remaining binding", "value": "1.4%"}
{"SMILES": "Cc1cccc(N(O)N=Nc2ccc(S(=O)(=O)Nc3cc(C)on3)cc2)c1", "assay": "DPPH scavenging, absorbance", "conditions": "240 µg/mL", "quantity": "inhibition", "value": "36.3%"}
{"SMILES": "COc1cc(-c2cncc3c2CN(C)Cc2cc(N4CCNCC4)ccc2-3)cc(OC)c1OC", "tested on": "CAMK1G (Homo sapiens, UniProt Q96NX5)", "assay": "enzyme activity, inhibitor", "conditions": "1 µM", "quantity": "remaining activity", "value": "102%"}
{"SMILES": "CN(CCCC(F)(F)F)c1nccc(-c2cnn3ncccc23)n1", "tested on": "CDK19", "assay": "binding", "conditions": "1 µM", "quantity": "remaining binding", "value": "100%"}
{"SMILES": "CNc1ncc2c(/C=C/C(=O)N3CCC(OC)CC3)nn(Cc3cccc(C(F)(F)F)c3)c2n1", "tested on": "MASTL (Homo sapiens, UniProt Q96GX5)", "assay": "enzyme activity, inhibitor, radiometric", "conditions": "1 µM", "quantity": "remaining activity", "value": "95%"}
{"SMILES": "CCCCC(=O)Nc1ccc(-c2ccc3ncn(CCC)c(=O)c3c2)cn1", "tested on": "MAP3K12 (Homo sapiens, UniProt Q12852)", "assay": "binding, competition with immobilised ligand", "conditions": "0.5 µM", "quantity": "remaining binding", "value": "100%"}
{"SMILES": "COc1cccc(-c2n[nH]c(SCc3ccccn3)n2)c1OC", "system": "male Sprague-Dawley rat, plasma", "conditions": "intravenous, 1 mg/kg, 1 h, single dose", "quantity": "concentration", "value": "273 ng/mL"}
{"SMILES": "N[C@@H]1CCN(c2nccc(-c3cnn4ncccc34)n2)C1", "tested on": "CDC42BPG (Homo sapiens, UniProt Q6DT37)", "assay": "binding", "conditions": "1 µM", "quantity": "remaining binding", "value": "100%"}
{"SMILES": "COc1ccc2oc(-c3ccc4nc(N)oc4c3)c/c(=N\\c3ccccc3NC(=O)CCN)c2c1", "tested on": "CILK1 (Homo sapiens, UniProt Q9UPZ9)", "assay": "binding", "conditions": "1 µM", "quantity": "remaining binding", "value": "95%"}
{"SMILES": "F[C@@H]1CCN(c2nccc(-c3cnn4ncccc34)n2)C1", "tested on": "SIK1 (Homo sapiens, UniProt P57059)", "assay": "binding", "conditions": "1 µM", "quantity": "remaining binding", "value": "100%"}
{"SMILES": "FC(F)(F)Oc1cccc(-c2cnc3ccc(-c4ccncc4)nn23)c1", "tested on": "PIK3CG (Homo sapiens, UniProt P48736)", "assay": "cell-free assay, competition with immobilised ligand", "conditions": "5 µM", "quantity": "remaining binding", "value": "0.9%"}
{"SMILES": "NS(=O)(=O)c1ccc(Nc2nc(-c3ccc(F)cc3)c3ccccc3n2)cc1", "tested on": "Bromodomain adjacent to zinc finger domain protein 2B, bromodomain (BAZ2B, Homo sapiens, UniProt Q9UIF8)", "assay": "binding, competition with immobilised ligand", "conditions": "1 µM", "quantity": "remaining binding", "value": "90%"}
{"SMILES": "C=CC(=O)N1CCC(COCC(=O)N2CCN(c3nc(-c4cnc(N)nc4C(F)F)nc(N4CCOC[C@@H]4C)n3)CC2)CC1", "tested on": "MAPKAPK2 (Homo sapiens, UniProt P49137)", "assay": "binding, competition with immobilised ligand", "conditions": "1 µM", "quantity": "remaining binding", "value": "90%"}
{"SMILES": "CNS(=O)(=O)c1ccc(Nc2ncc(C(F)(F)F)c(N3CCC[C@](C)(O)C3)n2)c(C)c1", "tested on": "TAOK3 (Homo sapiens, UniProt Q9H2K8)", "assay": "binding, competition with immobilised ligand", "conditions": "1 µM", "quantity": "remaining binding", "value": "4.3%"}
{"SMILES": "CCCN(O)N=Nc1ccc(S(=O)(=O)Nc2nccs2)cc1", "assay": "DPPH scavenging, absorbance", "conditions": "240 µg/mL", "quantity": "inhibition", "value": "22%"}
{"SMILES": "C1=C/COCc2cc(ccc2OCCN2CCCC2)Nc2nccc(n2)-c2cccc(c2)COC/1", "tested on": "PIK3CA (Homo sapiens, UniProt P42336, C420R)", "assay": "binding", "conditions": "0.1 µM", "quantity": "remaining binding", "value": "63%"}
{"SMILES": "Nc1ncnc2occ(-c3ccc(NC(=O)Nc4cc(C(F)(F)F)ccc4F)cc3)c12", "tested on": "Receptor-type tyrosine-protein kinase FLT3, autoinhibited (FLT3, Homo sapiens, UniProt P36888)", "assay": "cell-free assay, inhibitor", "conditions": "20 µM", "quantity": "remaining signal", "value": "0.1%"}
{"SMILES": "Cc1cc([C@@H](C)Nc2ccccc2C(=O)O)c2nc(N3CCC(F)(F)CC3)c(C#N)c(=O)n2c1", "tested on": "MKNK1 (Homo sapiens, UniProt Q9BUB5)", "assay": "binding, competition with immobilised ligand", "conditions": "1 µM", "quantity": "remaining binding", "value": "61%"}
